Measured values collected from several papers.
Numbers after ± are the reported error.

For CCCCCC(=O)N[C@H]1CSCc2cc(CSCCNC(=O)CCCCCNC(=O)CC[C@H](NC(=O)CCC(C(=O)O)N3CCN(CC(=O)O)CCN(CC(=O)O)CCN(CC(=O)O)CC3)C(=O)NCCCOc3ccc4nccc(C(=O)NCC(=O)N5CC(F)(F)C[C@H]5C#N)c4c3)cc(c2)CSC[C@@H](C(=O)O)NC(=O)[C@H](Cc2ccccc2)NC(=O)[C@H](CCC(N)=O)NC(=O)[C@H]([C@@H](C)O)NC(=O)[C@@H]2CCCN2C(=O)[C@@H]2CCCN2C1=O (some centres unmarked), cellular uptake read “inhibited” (HT1080 expressing human FAP; together with: UAMC1110).
The growth percent of COc1cc(CNC(=O)C[C@H](C)CCC=C(C)C)ccc1OCc1cn(-c2ccc(F)cc2)nn1 is reported as 53.1% (SNB-19 CNS cancer cells; SRB; 10 µM, 48 h).
For Cc1cc(CNCCCCCC(=O)NO)ccc1OCc1cccc(-c2ccccc2)c1C, mRNA level read “decreased” (mouse M1 macrophages; refers to: Il10; concentration not given).
CCCCN1C(=O)c2cccc3c(NCCN4CCOCC4)ccc(c23)C1=O: “Pearson correlation coefficient” 0.89 ± 0.04 (BHK-21; lysosome colocalization, confocal microscopy; 0.2 µM, together with: LysoTracker Deep Red 0.3 µM).
CC(C)=CCC1=C([O-])C(=O)c2ccccc2C1=O.CC(C)=CCC1=C([O-])C(=O)c2ccccc2C1=O.O.O.[Zn+2].c1cnc2c(c1)ccc1cccnc12: apoptotic cells “increased” (A2780; annexin V/PI flow cytometry; half-cytotoxic concentration, 24 h).
For COC(=O)C1C(C=NO)=Cc2cc3c(cc2C1c1cc(OC)c(OC)c(OC)c1)OCO3 (centres unmarked), the selectivity index was greater than 1.7 (uninfected mouse splenocytes; baseline: splenocyte CC50 over amastigote EC50).
With C=C(CC)C(=O)c1ccc(OCC(=O)NCCCCNC(=O)COc2ccc(C(=O)C(=C)CC)c(Cl)c2Cl)c(Cl)c1Cl the IC10 was roughly 200 nM (CoC1; cell growth, CCK-8; 72 h).
For Cc1c(C)n(-c2c(C(C)C)cccc2C(C)C)c(=[Se])n1-c1c(C(C)C)cccc1C(C)C.[Cl][Ag], the resistance factor was 0.2 (LoVo-OXP colon cancer cells; MTT; baseline: LoVo-OXP over LoVo IC50).
CCC12CCc3c(c4ccccc4n3C)CCN(CC3OC31)C2 (centres unmarked) has a PGE2 level of 15.3% (BV-2; ELISA; 25 µM, 1 h pretreatment, together with: LPS; baseline: LPS alone).
O=C(c1ccc(Oc2ccc(C3CCCCC3)cc2)c([N+](=O)[O-])c1)C(Cl)Cl gave an inhibition of greater than 95% (NCI-H1299; cell growth or viability, MTT; 2.5 µM).
C[C@@H](O)[C@@H]1NC(=O)[C@H](CCCCN)NC(=O)[C@@H](Cc2ccc(NC(N)=O)cc2)NC(=O)[C@H](Cc2ccc(NC(=O)[C@@H]3CC(=O)NC(=O)N3)cc2)NC(=O)[C@H](NC(=O)[C@H](Cc2ccc(Cl)cc2)NC(=O)CN2CCN(CC(=O)O)CCN(CC(=O)O)CCN(CC(=O)O)CC2)CSSC[C@@H](C(=O)N[C@H](Cc2ccc(O)cc2)C(N)=O)NC1=O: “internalized fraction of cell activity” 20.9 ± 0.59% (AR-42J; radioligand uptake; concentration not given, 4 h).
For CO[C@H]1N(OC)c2ccccc2[C@@]12CN=C(Nc1cc(C(F)(F)F)cc(C(F)(F)F)c1)S2 (relative stereo), “S phase cells” read 9.31 ± 2.54% (HCT-116; PI flow cytometry; 40 µM, 48 h).
COc1cc(CNC(=O)C[C@H](C)CCC=C(C)C)ccc1OCc1cn(-c2ccccc2Cl)nn1 has a growth percent of 55.9% (M14 melanoma cells; SRB; 10 µM, 48 h).
The proliferation reduction of CC1=CCC23OC2(C)CCC2C(CN(C)C)C(=O)OC2C13.Cl (centres unmarked) is reported as 3 fold (C6 rat glioma cells; 2 mg/mL, clonogenic; baseline: control).
With O=C(O)CCC(NP(=O)(O)OCCC[C@@H](NC(=O)CC[C@H](NC(=O)CCCCCNC(=O)c1ccc([18F])cc1)C(=O)O)C(=O)O)C(=O)O (some centres unmarked) the cell uptake was 5.51 ± 0.77% (LNCaP; concentration not given, 1 h).
Cc1noc(NS(=O)(=O)c2ccc(NC(=O)c3cc(-c4cccc(Cl)c4)nc4ccccc34)cc2)c1C gave an inhibition of 14.1 ± 9.97% (mouse spleen cells; cell proliferation, MTT; 1 µM, 72 h, together with: concanavalin A 5 µg/mL).
CC[C@H](C)[C@H](NC(=O)[C@H](CC(C)C)NC(=O)[C@@H](N)CS)C(=O)N[C@@H](CCC(=O)O)C(=O)N[C@@H](Cc1ccc(O)cc1)C(=O)NCC(=O)NCC(=O)N[C@@H](C)C(=O)N[C@@H](CC(=O)O)C(=O)N[C@@H](Cc1ccc(O)cc1)C(=O)N[C@@H](CCCCN)C(=O)N[C@H](C(=O)N[C@H](C(=O)N[C@@H](CC(N)=O)C(=O)N[C@@H](CC(C)C)C(=O)N[C@@H](CCCCN)C(=O)O)[C@@H](C)CC)[C@@H](C)O: “VP2, Bax, caspase-3, caspase-9 levels” “decreased” (DT40; western blot; infectious bursal disease virus; 50 to 100 nM, 12 h; baseline: infected untreated).
N=C(S)N/N=C/c1ncc(C(F)(F)F)cc1Cl gave an Emax of 42% (LDR; silenced GFP reporter derepression, microscopy; overnight; baseline: sodium butyrate).
For COc1cc(CNC(=O)C[C@H](C)CCC=C(C)C)ccc1OCc1cn(-c2cccc([N+](=O)[O-])c2)nn1, the growth percent was 73.4% (SNB-19 CNS cancer cells; SRB; 10 µM, 48 h).
Under “cells in G2 phase”, C=C(C)[C@@H]1CC[C@]2(C(=O)OCO/N=[N+](\[O-])N3CCCC3)CC[C@]3(C)[C@H](CC[C@@H]4[C@@]5(C)CC[C@H](OC(C)=O)C(C)(C)[C@@H]5CC[C@]43C)[C@@H]12 is recorded as 4.84% (B16-F10; PI flow cytometry; 1.0 µM).
With CC(=O)OC[C@H]1O[C@@H](Sc2sc(C(=O)c3ccc(Br)cc3)c(N)c2-c2nc3ccccc3s2)[C@H](OC(C)=O)[C@@H](OC(C)=O)[C@H]1OC(C)=O the growth was 93% (SF-268; SRB; 10 µM, 48 h; baseline: untreated).
COc1cc(CNC(=O)C[C@H](C)CCC=C(C)C)ccc1O has a growth percent of 95.9% (M14 melanoma cells; SRB; 10 µM, 48 h).
CCc1nnc(NC(=O)c2cccc(C(=O)Nc3nnc(CC)s3)n2)s1 has an Emax of 96% (LDR; silenced GFP reporter derepression, microscopy; overnight; baseline: sodium butyrate).
The growth inhibition of COC(=O)C1=CO[C@@H](C)[C@@H]2Cn3ccc4c5ccccc5nc-4c3C[C@H]12 is reported as less than 50% (neonatal foreskin fibroblasts; 200 µM).
O=[N+]([O-])C(=C\Nc1ccccc1O)/C=N/c1ccccc1O has an Emax of 29% (LDR; silenced GFP reporter derepression, microscopy; overnight; baseline: sodium butyrate).
C=C1C(=O)[C@]23C[C@H]1CC[C@H]2[C@@]12CO[C@]3(O)[C@@H](O)[C@@H]1C(C)(C)C=CC2=O gave a selectivity ratio of 54.3 (L6 rat myotubes and HepG2; MTT; baseline: IC50 L6 over IC50 HepG2).
The selectivity index of CC(=O)Oc1ccccc1C(=O)[O][Pt]([NH2])([NH2])([Cl])([Cl])[O]C(=O)C(Cl)Cl is reported as 1.5 (HEK293 and PSN1; cytotoxicity, MTT; baseline: IC50 HEK293 over IC50 PSN1).
For FC(F)(F)c1ccc(CNc2nc(NCc3ccccc3)c3ccccc3n2)cc1, the GI50 was 3000 nM (SW-403; cell growth or viability; 24 h).
The growth percent of COc1cc(CNC(=O)C[C@H](C)CCC=C(C)C)ccc1OCc1cn(-c2ccccc2[N+](=O)[O-])nn1 is reported as 24.1% (BT-549 breast cancer cells; SRB; 10 µM, 48 h).
Under PRAS40 phosphorylation, N[C@@H](CCC(=O)N[C@@H](CS[Se]Cc1ccc(-c2cc(C(F)(F)F)nn2-c2ccc(S(N)(=O)=O)cc2)cc1)C(=O)NCC(=O)O)C(=O)O is recorded as “inhibited” (melanoma cells; refers to: phospho-PRAS40; concentration not given).
CCOP(=O)(CC(=O)Nc1ccc(S(=O)(=O)N(CC(N)=O)c2ccc(N(CC(N)=O)S(=O)(=O)c3ccc(OC)cc3)c3ccccc23)cc1)OCC — result for protein expression: “increased” (mouse primary cortical neurons; western blot, refers to: PSD95; 20 µM, together with: amyloid beta).
Cc1ccc(C(C)C)cc1.[Cl-].[Cl-].[Ru+2].c1ccc(P(=Nc2cccc3cccnc23)(c2ccccc2)c2ccccc2)cc1: “annexin V positive cells” 32% (Jurkat; concentration not given, 24 h then 24 h washout, together with: z-VAD-fmk).
For CCCCCCCCCn1cc(C(N)(CO)CO)nn1, ceramide level read “decreased” (Alzheimer's disease patient iPSC-derived neurons; 10 µM).
For OCc1nc(-c2cnc(N3CCC(Oc4ccccc4C(F)(F)F)CC3)s2)no1, “lipid droplet size and distribution” read “no effect” (Huh-7, Huh7-SGR, Huh7.5, Huh7.5-FGR; CARS microscopy; below 250 nM, 96 h).
Under “Pearson's correlation coefficient”, CCCCN1C(=O)c2cccc3c(NCCCCCCCCCCN4CCOCC4)ccc(c23)C1=O is recorded as 0.91 ± 0.02 (BHK-21; confocal microscopy, refers to: endoplasmic reticulum colocalisation; 0.2 µM, together with: 0.3 µM ER-Tracker Red).
For C#CCN(CC(=O)O[C@H]1[C@H](C)O[C@@H](O[C@H]2[C@H](N(C)C)[C@@H](O)[C@H](O[C@H]3[C@@H](CC=O)C[C@@H](C)[C@@H](O[C@H]4CC[C@H](N(C)C)[C@@H](C)O4)/C=C/C=C/C[C@@H](C)OC(=O)C[C@@H](O)[C@@H]3OC)O[C@@H]2C)C[C@@]1(C)O)C(=O)c1ccc(C(F)(F)F)cc1, phospho-ERK1/2 level read “increased” (HGC-27; Western blot; 0.10, 0.45, 0.90 µM, 24 h).
With COc1cc(CNC(=O)C[C@H](C)CCC=C(C)C)ccc1OCc1cn(-c2ccccc2)nn1 the growth percent was 69.2% (OVCAR-5 ovarian cancer cells; SRB; 10 µM, 48 h).
COc1cc(OCCN2CCOCC2)cnc1-c1nc2cc(OC(F)(F)F)ccc2[nH]1 — result for “KIT+ CD41+ cells”: “decreased” (mouse inducible Runx1 ES cells; concentration not given, together with: doxycycline).
The GI50 of COc1cccc2c(NCc3ccccc3)nc(Nc3cccc(F)c3)nc12 is reported as 4900 nM (SW-403; cell growth or viability; 24 h).
The inhibition of Cc1noc(NS(=O)(=O)c2ccc(NC(=O)c3cc(-c4ccc5ccccc5c4)nc4ccccc34)cc2)c1C is reported as 20.8 ± 8.41% (mouse spleen cells; cell proliferation, MTT; 1 µM, 72 h, together with: concanavalin A 5 µg/mL).
For CC(=C(c1ccc(Cl)cc1)c1ccc(OCCN(C)C)cc1)c1ccc(Cl)cc1, “mean growth inhibition” read “no inhibition” (60 NCI tumour cell lines; NCI one-dose screen; 10 µM).
For COc1ccc(CC2COC(=O)C2Cc2ccc3c(c2)OCO3)cc1OC (mixture of isomers), protein level read “decreased” (A2780; western blot, refers to: CDK1; 8.75 µM, 72 h).
With CC(C)c1cccc(C(C)C)c1N1CCN(c2c(C(C)C)cccc2C(C)C)C1=[Se].[Cl][Au] the resistance factor was 0.8 (LoVo-OXP colon cancer cells; MTT; baseline: LoVo-OXP over LoVo IC50).
With COc1ccc([C@@H]2CC(=O)c3c(O)cc(O[C@@H]4O[C@H](CO[C@@H]5O[C@@H](C)[C@H](O)[C@@H](O)[C@H]5O)[C@@H](O[C@H]5O[C@H](CO)[C@@H](O)[C@H](O)[C@H]5O)[C@H](O)[C@H]4O)cc3O2)cc1O the cell count was 6250 ± 846 (MRC5; trypan blue exclusion; 150 µg/mL, 24 h).
COc1cc(CNC(=O)C[C@H](C)CCC=C(C)C)ccc1OCc1cn(-c2cccc(Cl)c2)nn1 has a growth percent of 72.3% (OVCAR-5 ovarian cancer cells; SRB; 10 µM, 48 h).
For Cc1ccc(C(C)C)cc1.[Cl-].[Cl][Ru+].[Ru+].c1ccc(-c2cn(CCCCOc3ccccc3-c3nc4ccccc4s3)nn2)nc1, “cells in phase” read 10.1% (MCF7; PI flow cytometry, refers to: S phase; 4 µM, 24 h).
COC(=O)C(CCSC)NC(=O)/C=C/C=C/c1ccc(O)c(O)c1 (centres unmarked) has a mRNA level of 7 fold (HL-7702 (L-02) hepatocytes; RT-qPCR, refers to: PPARγ; 100 µM; baseline: untreated).
O=Cc1c(O)ccc2ccccc12: “log2 fold change” -4.05 (HUVEC; RNA sequencing, refers to: GIMAP8; 75 µM, 24 h; baseline: DMSO).
Cc1ccc(C(C)C)cc1.O=C(N=P(c1ccccc1)(c1ccccc1)c1ccccc1)c1ccccn1.[Cl-].[Cl][Ru+] has an invasion reduction of 70.7% (HCC1806; Transwell Geltrex invasion; IC20, 24 h; baseline: untreated).
For COc1cc(CNC(=O)C[C@H](C)CCC=C(C)C)ccc1OCc1cn(-c2ccccc2F)nn1, the growth percent was 94.8% (M14 melanoma cells; SRB; 10 µM, 48 h).
The selectivity ratio of COc1cc(C2Oc3ccc(C=C4Oc5cc(O)ccc5C4=O)cc3OC2CO)cc(OC)c1O (centres unmarked) is reported as 0.84 (MRC5 over DU-145; cytotoxicity, MTT; 72 h; baseline: IC50 MRC5 over IC50 DU-145).
Under “cells in G2/M phase”, O=C1OCC2=C1C(c1cccc(Br)c1)C1=C(N2)C(=O)c2ccccc2C1=O (centres unmarked) is recorded as 11.9% (SK-LU-1 cells; PI flow cytometry; 0.08 µM, 24 h).
CCCC(=O)N1CCN(c2ccc(NC(=O)c3ccc([N+](=O)[O-])o3)cc2Cl)CC1 has an Emax of 22% (LDR; silenced GFP reporter derepression, microscopy; overnight; baseline: sodium butyrate).
